Measurements collected from several papers.
Lines come from different studies, so protocols differ. ± marks the error that the study gave.

Cc1nc(-c2ccc(NCCCCCCN3C[C@H](O)[C@@H](O)[C@H](O)[C@H]3CO)c([N+](=O)[O-])c2)no1  viability (A549 expressing ACE2; WST-1; 25 µM, 3 days): 100%
OC(CNCC(O)C1CCc2cc(F)ccc2O1)C1CCc2cc(F)ccc2O1 (stereo not drawn)  CC50 (African green monkey cells; 5 days): 8.71 µM
CC(C)c1ccc(NC(=O)N(C)C)cc1  IC10 (rat hepatoma cells; cell viability; 24 h, freely dissolved concentration): 177 µM
CC(O)c1ccc(OCCc2cccc(F)c2)c(C(N)=O)c1 (stereo not drawn)  CC50 (HepG2; galactose medium; 3 (unit not given)): > 100 µM
Nc1nc2c(ncn2[C@@H]2O[C@@H]3COP(=O)(O)O[C@H]4[C@@H](O)[C@H](n5cnc6c(N)ncnc65)O[C@@H]4COP(=O)(O)O[C@@H]2[C@@H]3O)c(=O)[nH]1  viability (HFF-1; 100 µg/mL): 90.9%
CN(CCC=C1c2ccccc2CCc2ccccc21)N=O  relative survival (TK6 expressing CYP2C19; 0.5 µM, 4 h, without S9; relative to: vehicle): 11.7%
NC(=O)C1CN(CCCCC(c2ccc(F)cc2)c2ccc(F)cc2)CCN1CC(=O)Nc1c(Cl)cc(N)cc1Cl (stereo not drawn)  CC50 (African green monkey cells; 5 days): 9.66 µM
CC(C)CC(=O)OC[C@H]1O[C@@](C#N)(c2ccc3c(N)ncnn23)[C@H](O)[C@@H]1O  remaining compound (monkey hepatocytes; 5 µM, 15 min): 0.448 ± 0.307%
O=C(Nc1ccccc1)OCC(CN1CCCCC1)OC(=O)Nc1ccccc1 (stereo not drawn)  CC50 (African green monkey cells; 5 days): > 25.1 µM
C=C(C)[C@H]1Cc2c(ccc3c2O[C@@H]2COc4cc(OC)c(OC)cc4[C@@H]2C3=O)O1  IC50 (THLE-2 transduced with P450 mix; metabolism-induced cytotoxicity; 48 h, 3D Matrigel spots): 0.4 ± 0.1 µM
CC[C@H](C)[C@H](NC(=O)[C@H](CC(=O)O)NC(=O)[C@@H](NC(=O)[C@H](CC(N)=O)NC(=O)[C@@H]1CCCN1C(=O)[C@@H](NC(=O)[C@H](Cc1ccccc1)NC(=O)CNC(=O)CNC(=O)CNC(=O)[C@H](CC(C)C)NC(=O)[C@H](CCCCN)NC(=O)[C@H](CCCCN)NC(=O)[C@H](CC(C)C)NC(=O)[C@H](CC(C)C)NC(=O)[C@H](CC(C)C)NC(=O)[C@H](CC(C)C)NC(=O)[C@H](CC(C)C)NC(=O)[C@H](CCCCN)NC(=O)[C@H](CCCCN)NC(=O)[C@@H](N)CC(C)C)[C@@H](C)O)[C@@H](C)O)C(=O)N[C@H](C(=O)N[C@H](C(=O)N[C@@H](CCCNC(=N)N)C(=O)N[C@H](C(=O)N[C@H](C(=O)O)[C@@H](C)O)[C@@H](C)O)[C@@H](C)O)[C@@H](C)CC  lowest hemolytic concentration (human red blood cells; 1 h, 37 °C, 10% hemolysis): > 256 µg/mL
Cn1c(N)nc2c3cccnc3ccc21  cytotoxicity (rat hepatoma cells; highest tested): not toxic
CC(=O)N[C@@H](CCCCN)C(=O)N[C@@H](CCCCN)C(=O)N[C@@H](CC(C)C)C(=O)N[C@@H](CC(C)C)C(=O)N[C@@H](CCCCN)C(=O)N[C@@H](CC(C)C)C(=O)N[C@@H](CC(C)C)C(=O)N[C@@H](CCCCN)C(=O)N[C@@H](CCCCN)C(=O)N1CCC[C@H]1C(=O)N[C@@H](CC(C)C)C(=O)N[C@@H](CCCCN)C(=O)N[C@@H](C)C(=O)N[C@@H](CC(C)C)C(=O)N[C@@H](CCCCN)C(N)=O  MHC10 (human red blood cells; haemolysis; 6 h, 37 °C, 5% haematocrit in PBS): > 160 µM
CC(C)(C)c1ccc(C(O)CCCN2CCC(C(O)(c3ccccc3)c3ccccc3)CC2)cc1 (stereo not drawn)  CC50 (African green monkey cells; 5 days): 5.13 µM
CC(C)C[C@H](NC(=O)[C@H](CCCNC(=N)N)NC(=O)[C@H](CCCNC(=N)N)NC(=O)[C@H](CCCNC(=N)N)NC(=O)[C@@H]1CCCN1C(=O)[C@H](Cc1ccccc1)NC(=O)[C@H](Cc1ccc(O)cc1)NC(=O)[C@H](CCCNC(=N)N)NC(=O)[C@H](Cc1ccc(O)cc1)NC(=O)[C@@H](NC(=O)[C@H](CC(C)C)NC(=O)[C@H](Cc1ccc(O)cc1)NC(=O)[C@H](CCCNC(=N)N)NC(=O)[C@H](Cc1c[nH]cn1)NC(=O)[C@@H]1CCCN1C(=O)[C@H](Cc1c[nH]c2ccccc12)NC(=O)[C@H](Cc1ccc(O)cc1)NC(=O)[C@H](Cc1ccccc1)NC(=O)[C@@H]1CCCN1C(=O)[C@H](CCC(N)=O)NC(=O)[C@H](Cc1ccccc1)NC(=O)[C@@H]1CCCN1C(=O)[C@H](Cc1ccccc1)NC(=O)[C@H](CCCNC(=N)N)NC(=O)[C@H](Cc1c[nH]cn1)NC(=O)[C@H](CC(N)=O)NC(=O)[C@H](CS)NC(=O)[C@H](CCCNC(=N)N)NC(=O)[C@H](CO)NC(=O)[C@@H]1CCCN1C(=O)[C@@H](NC(=O)[C@H](Cc1ccccc1)NC(=O)[C@@H]1CCCN1C(=O)[C@@H](N)CCCNC(=N)N)C(C)C)[C@@H](C)O)C(=O)N[C@@H](CCC(N)=O)C(=O)N[C@@H](CCCNC(=N)N)C(=O)O  HC50 (human red blood cells; hemolysis): 10.1 µmol/L
CC(c1ccccc1)(c1ccc(O)cc1)c1ccc(O)cc1  viable cells (HepG2 spheroids, dissociated; annexin V-FITC/PI flow cytometry; 10 µM, 24 h): 74.5 ± 13.5%
COc1cc2c(c(OC)c1OC)-c1ccc(OC)c(=O)cc1[C@@H](NC(C)=O)CC2  cytostasis (human peripheral blood lymphocytes; 0.01 µg/mL, 24 h, without S9): 7%
CC(=O)N[C@@H](C)C(=O)N[C@@H](CCCCN)C(=O)N[C@@H](CC(C)C)C(=O)N[C@@H](CC(C)C)C(=O)N[C@@H](CCCCN)C(=O)N[C@@H](CC(C)C)C(=O)N[C@@H](CC(C)C)C(=O)N[C@@H](CCCCN)C(=O)N[C@@H](CCCCN)C(=O)N1CCC[C@H]1C(=O)N[C@@H](CC(C)C)C(=O)N[C@@H](CCCCN)C(=O)N[C@@H](CC(C)C)C(=O)N[C@@H](CC(C)C)C(=O)N[C@@H](CCCCN)C(N)=O  MHC10 (human red blood cells; haemolysis; 6 h, 37 °C, 5% haematocrit in PBS): > 160 µM
CCCCCCCCCCCC(=O)N[C@H](CCC(=O)NC(CCCC(N)C(=O)O)C(=O)O)C(=O)O (stereo partly drawn)  viability (HFF-1; 10 µg/mL): 88.4%
CC(C)C[C@H](NC(=O)CNC(=O)CNC(=O)CNC(=O)[C@H](CC(N)=O)NC(=O)[C@H](Cc1ccccc1)NC(=O)[C@@H]1CCCN1C(=O)[C@H](CC(N)=O)NC(=O)[C@H](Cc1c[nH]cn1)NC(=O)[C@H](CO)NC(=O)[C@H](CCCNC(=N)N)NC(=O)[C@H](CC(=O)O)NC(=O)[C@H](CO)NC(=O)[C@H](CC(C)C)NC(=O)[C@@H](NC(=O)[C@@H](N)Cc1ccc(O)cc1)[C@@H](C)O)C(=O)N[C@@H](CCCCN)C(=O)N[C@@H](CCCCN)C(=O)N[C@@H](CC(C)C)C(=O)N[C@@H](CC(C)C)C(=O)N[C@@H](CC(C)C)C(=O)N[C@@H](CC(C)C)C(=O)N[C@@H](CC(C)C)C(=O)N[C@@H](CCCCN)C(=O)N[C@@H](CCCCN)C(=O)N[C@@H](CC(C)C)C(=O)NCC(=O)O  lowest cytotoxic concentration (HEK-293T cells; CCK-8; 4 h, 37 °C, 10% cell death): > 256 µg/mL
Oc1ccc(C2(c3ccc(O)cc3)c3ccccc3-c3ccccc32)cc1  necrotic cells (HepG2 spheroids; propidium iodide staining; concentration not given, 24 h): decreased
NCC[C@H](Oc1ccc(C(F)(F)F)cc1)c1ccccc1  CC50 (African green monkey cells; 5 days): 10.6 µM
Nc1nc2c(ncn2[C@@H]2O[C@@H]3COP(=O)(O)O[C@H]4[C@@H](O)[C@H](n5cnc6c(=O)[nH]c(N)nc65)O[C@@H]4COP(=O)(O)O[C@H]3[C@H]2O)c(=O)[nH]1  viability (HFF-1; 1 µg/mL): 89.9%
O=c1ccc2ccccc2o1  chance response (NHEK; mitochondrial reserve capacity, Seahorse; concentration not given, 6 h): 90.9%
O=S(=O)(c1ccc(O)cc1)c1ccc(O)cc1  early apoptotic cells (HepG2 spheroids, dissociated; annexin V-FITC/PI flow cytometry; 0.01 µM, 96 h): 7.15 ± 6.97%
Cc1cc2nc3c(=O)[nH]c(=O)nc-3n(C[C@H](O)[C@H](O)[C@H](O)CO)c2cc1C  CC50 (African green monkey cells; 5 days): > 50.1 µM
O=C(NC1CC1)c1cc(-c2ccoc2)ccc1OCCc1cccc(F)c1  selectivity ratio (HepG2; 3 (unit not given); relative to: CC50 glucose over CC50 galactose): 2
Oc1ccc(C(c2ccc(O)cc2)(C(F)(F)F)C(F)(F)F)cc1  late apoptotic cells (HepG2 spheroids, dissociated; annexin V-FITC/PI flow cytometry; 40 µM, 24 h): 9.91 ± 4.56%
CNC(=O)c1cc(C)ccc1OCCc1ccc(Br)cc1  selectivity ratio (HepG2; 3 (unit not given); relative to: CC50 glucose over CC50 galactose): < 1
Cc1cc(C(C)(C)c2ccc(O)c(C)c2)ccc1O  necrotic cells (HepG2 spheroids; annexin V-FITC/PI flow cytometry; 10 µM, 96 h): 38 ± 7.42%

For quick reference, copied from above:
C=C(C)[C@H]1Cc2c(ccc3c2O[C@@H]2COc4cc(OC)c(OC)cc4[C@@H]2C3=O)O1  IC50 (THLE-2 transduced with P450 mix; metabolism-induced cytotoxicity; 48 h, 3D Matrigel spots): 0.4 ± 0.1 µM
O=c1ccc2ccccc2o1  chance response (NHEK; mitochondrial reserve capacity, Seahorse; concentration not given, 6 h): 90.9%
CC(=O)N[C@@H](CCCCN)C(=O)N[C@@H](CCCCN)C(=O)N[C@@H](CC(C)C)C(=O)N[C@@H](CC(C)C)C(=O)N[C@@H](CCCCN)C(=O)N[C@@H](CC(C)C)C(=O)N[C@@H](CC(C)C)C(=O)N[C@@H](CCCCN)C(=O)N[C@@H](CCCCN)C(=O)N1CCC[C@H]1C(=O)N[C@@H](CC(C)C)C(=O)N[C@@H](CCCCN)C(=O)N[C@@H](C)C(=O)N[C@@H](CC(C)C)C(=O)N[C@@H](CCCCN)C(N)=O  MHC10 (human red blood cells; haemolysis; 6 h, 37 °C, 5% haematocrit in PBS): > 160 µM
